Experimental data gathered from unrelated publications.
Each numbered part is a random draw from the data of one study; scales do not carry over between parts.
Chain of UniProt P27361 (whole entry, looked up): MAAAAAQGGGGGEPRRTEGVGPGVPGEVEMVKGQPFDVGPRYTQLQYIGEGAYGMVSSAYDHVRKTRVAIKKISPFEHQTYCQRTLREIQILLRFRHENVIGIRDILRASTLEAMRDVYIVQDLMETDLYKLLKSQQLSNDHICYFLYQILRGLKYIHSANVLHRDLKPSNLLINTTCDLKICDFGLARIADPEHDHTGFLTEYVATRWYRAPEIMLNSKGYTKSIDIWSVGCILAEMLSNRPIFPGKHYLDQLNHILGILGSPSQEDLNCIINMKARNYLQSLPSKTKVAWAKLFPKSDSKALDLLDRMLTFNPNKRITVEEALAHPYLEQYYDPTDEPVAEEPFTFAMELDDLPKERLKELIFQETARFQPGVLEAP
Chain of UniProt P23458 (whole entry, looked up): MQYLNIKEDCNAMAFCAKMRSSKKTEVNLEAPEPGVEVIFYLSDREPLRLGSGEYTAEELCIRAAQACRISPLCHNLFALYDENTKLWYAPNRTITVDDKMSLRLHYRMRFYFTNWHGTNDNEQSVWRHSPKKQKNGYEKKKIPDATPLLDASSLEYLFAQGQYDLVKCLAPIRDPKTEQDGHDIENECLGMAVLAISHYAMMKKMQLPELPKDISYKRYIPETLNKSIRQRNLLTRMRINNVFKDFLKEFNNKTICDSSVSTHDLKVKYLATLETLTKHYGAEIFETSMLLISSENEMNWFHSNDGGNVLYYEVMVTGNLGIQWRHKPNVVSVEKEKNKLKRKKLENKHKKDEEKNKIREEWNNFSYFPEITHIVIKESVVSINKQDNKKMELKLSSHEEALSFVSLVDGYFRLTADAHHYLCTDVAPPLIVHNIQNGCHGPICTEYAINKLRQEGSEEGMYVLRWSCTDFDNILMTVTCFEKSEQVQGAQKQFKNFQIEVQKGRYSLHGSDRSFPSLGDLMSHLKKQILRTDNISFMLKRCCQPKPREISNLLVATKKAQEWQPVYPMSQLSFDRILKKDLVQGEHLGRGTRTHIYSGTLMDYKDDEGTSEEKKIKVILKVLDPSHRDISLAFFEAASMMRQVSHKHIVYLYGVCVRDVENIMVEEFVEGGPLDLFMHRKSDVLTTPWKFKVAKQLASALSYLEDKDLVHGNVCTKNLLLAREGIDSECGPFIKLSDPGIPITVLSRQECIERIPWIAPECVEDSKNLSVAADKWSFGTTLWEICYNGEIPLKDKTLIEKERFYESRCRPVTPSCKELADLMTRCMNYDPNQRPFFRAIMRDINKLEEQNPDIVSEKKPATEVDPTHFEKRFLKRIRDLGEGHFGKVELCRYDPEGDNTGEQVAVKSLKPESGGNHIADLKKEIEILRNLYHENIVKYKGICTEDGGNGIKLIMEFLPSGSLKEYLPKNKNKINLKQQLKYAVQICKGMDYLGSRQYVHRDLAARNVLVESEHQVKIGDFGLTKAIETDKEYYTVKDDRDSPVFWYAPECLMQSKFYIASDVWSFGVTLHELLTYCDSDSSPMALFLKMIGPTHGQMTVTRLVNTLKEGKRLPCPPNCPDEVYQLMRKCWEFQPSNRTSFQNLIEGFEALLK
Chain of UniProt P15056 (whole entry, looked up): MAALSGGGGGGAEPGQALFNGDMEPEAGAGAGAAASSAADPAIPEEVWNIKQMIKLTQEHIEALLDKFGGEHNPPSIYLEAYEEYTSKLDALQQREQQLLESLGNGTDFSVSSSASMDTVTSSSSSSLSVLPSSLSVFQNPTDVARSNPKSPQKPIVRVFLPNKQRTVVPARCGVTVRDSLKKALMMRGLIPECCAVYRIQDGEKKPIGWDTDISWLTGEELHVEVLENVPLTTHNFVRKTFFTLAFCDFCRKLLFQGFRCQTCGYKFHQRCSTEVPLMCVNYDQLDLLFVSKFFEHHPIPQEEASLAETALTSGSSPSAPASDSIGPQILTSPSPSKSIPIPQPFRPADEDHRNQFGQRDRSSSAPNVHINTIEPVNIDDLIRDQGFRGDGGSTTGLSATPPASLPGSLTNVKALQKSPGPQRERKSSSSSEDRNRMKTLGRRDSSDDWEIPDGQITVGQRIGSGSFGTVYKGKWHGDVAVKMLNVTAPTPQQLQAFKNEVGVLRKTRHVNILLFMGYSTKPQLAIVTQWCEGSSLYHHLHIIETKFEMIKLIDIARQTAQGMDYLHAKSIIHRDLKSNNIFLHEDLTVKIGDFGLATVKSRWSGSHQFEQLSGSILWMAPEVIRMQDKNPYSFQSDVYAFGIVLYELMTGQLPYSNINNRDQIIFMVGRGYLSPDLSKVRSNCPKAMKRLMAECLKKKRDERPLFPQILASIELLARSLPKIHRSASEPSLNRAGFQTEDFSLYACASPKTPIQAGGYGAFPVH
Chain of UniProt Q05397 (whole entry, looked up): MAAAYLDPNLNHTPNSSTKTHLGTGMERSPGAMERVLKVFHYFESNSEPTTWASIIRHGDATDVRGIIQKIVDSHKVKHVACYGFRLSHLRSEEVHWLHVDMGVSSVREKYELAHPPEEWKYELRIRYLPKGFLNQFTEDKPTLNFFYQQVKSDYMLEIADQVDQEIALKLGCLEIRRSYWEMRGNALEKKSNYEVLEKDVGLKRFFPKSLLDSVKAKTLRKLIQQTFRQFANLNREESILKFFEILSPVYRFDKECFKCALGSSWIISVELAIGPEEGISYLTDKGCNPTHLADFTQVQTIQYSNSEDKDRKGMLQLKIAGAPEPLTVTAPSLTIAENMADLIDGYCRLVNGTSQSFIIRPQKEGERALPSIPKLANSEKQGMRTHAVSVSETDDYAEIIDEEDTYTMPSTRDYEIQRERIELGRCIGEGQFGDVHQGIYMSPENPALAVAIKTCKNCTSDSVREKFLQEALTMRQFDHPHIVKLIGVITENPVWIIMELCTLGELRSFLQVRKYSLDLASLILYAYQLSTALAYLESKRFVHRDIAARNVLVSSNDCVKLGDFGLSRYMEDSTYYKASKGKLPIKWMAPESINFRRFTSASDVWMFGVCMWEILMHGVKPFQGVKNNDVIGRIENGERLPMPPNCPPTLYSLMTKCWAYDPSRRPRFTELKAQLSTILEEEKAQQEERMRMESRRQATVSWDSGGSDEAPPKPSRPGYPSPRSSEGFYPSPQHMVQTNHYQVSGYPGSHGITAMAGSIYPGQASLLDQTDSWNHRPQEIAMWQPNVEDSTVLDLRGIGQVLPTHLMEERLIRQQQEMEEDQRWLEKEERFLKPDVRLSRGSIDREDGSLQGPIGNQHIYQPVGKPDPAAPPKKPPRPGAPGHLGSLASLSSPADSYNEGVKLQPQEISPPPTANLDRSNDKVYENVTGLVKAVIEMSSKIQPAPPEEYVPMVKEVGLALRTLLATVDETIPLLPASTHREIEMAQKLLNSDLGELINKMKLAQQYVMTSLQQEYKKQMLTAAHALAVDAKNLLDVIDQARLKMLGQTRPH
Chain of UniProt O43353 (whole entry, looked up): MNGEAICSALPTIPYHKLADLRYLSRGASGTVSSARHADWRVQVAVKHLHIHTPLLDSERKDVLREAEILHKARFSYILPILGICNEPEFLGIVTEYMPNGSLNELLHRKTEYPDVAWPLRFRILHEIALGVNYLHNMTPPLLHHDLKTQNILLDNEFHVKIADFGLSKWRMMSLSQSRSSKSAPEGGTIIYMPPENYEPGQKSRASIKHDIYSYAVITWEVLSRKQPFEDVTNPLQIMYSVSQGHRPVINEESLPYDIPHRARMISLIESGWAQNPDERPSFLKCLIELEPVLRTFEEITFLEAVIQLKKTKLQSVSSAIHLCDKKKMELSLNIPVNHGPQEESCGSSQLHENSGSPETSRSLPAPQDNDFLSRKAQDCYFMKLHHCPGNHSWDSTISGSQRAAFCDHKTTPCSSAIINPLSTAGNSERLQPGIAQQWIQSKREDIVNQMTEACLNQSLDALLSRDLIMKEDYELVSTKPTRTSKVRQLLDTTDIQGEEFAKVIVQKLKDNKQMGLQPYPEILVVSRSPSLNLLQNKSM
Chain of UniProt O00141 (whole entry, looked up): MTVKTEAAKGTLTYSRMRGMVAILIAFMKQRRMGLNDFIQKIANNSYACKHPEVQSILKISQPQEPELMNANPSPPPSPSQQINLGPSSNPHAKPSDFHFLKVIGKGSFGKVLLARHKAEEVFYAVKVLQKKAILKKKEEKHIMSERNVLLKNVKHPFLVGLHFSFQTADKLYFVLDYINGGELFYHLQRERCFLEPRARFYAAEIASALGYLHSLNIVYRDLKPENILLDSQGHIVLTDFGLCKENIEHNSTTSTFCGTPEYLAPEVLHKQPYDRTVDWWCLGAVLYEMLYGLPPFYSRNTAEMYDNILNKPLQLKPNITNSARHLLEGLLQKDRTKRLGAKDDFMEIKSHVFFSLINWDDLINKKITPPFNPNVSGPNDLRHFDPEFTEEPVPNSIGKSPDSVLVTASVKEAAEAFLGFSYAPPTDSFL
Chain of UniProt P25098 (whole entry, looked up): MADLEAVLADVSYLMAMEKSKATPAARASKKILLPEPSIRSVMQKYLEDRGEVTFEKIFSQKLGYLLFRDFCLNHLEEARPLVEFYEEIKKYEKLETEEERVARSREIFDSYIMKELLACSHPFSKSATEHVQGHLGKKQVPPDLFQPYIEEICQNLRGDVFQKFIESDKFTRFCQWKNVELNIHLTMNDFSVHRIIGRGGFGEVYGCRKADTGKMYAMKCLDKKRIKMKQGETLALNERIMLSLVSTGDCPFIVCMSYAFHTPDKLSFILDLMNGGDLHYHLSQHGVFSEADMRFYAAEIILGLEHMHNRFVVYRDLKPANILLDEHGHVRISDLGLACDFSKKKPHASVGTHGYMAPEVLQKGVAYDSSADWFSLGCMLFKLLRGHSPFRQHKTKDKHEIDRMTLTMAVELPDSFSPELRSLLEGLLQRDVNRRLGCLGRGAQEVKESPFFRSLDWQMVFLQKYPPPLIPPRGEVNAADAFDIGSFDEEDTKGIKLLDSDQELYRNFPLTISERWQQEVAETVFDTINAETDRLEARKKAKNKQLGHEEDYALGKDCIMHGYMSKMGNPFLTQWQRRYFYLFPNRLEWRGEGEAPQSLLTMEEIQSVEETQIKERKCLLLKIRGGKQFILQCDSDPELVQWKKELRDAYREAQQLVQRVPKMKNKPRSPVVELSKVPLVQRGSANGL

Block 1 — observed: AlphaScreen signal; technique: AlphaScreen counter screen; medium: His6 peptide without bromodomain; tested at: 50 µM; setting: assay interference check
Structure (SMILES)	inhibition
CN[C@@H]1C[C@H]2O[C@@](C)([C@@H]1OC)n1c3ccccc3c3c4c(c5c6ccccc6n2c5c31)C(=O)N[C@H]4O	39%
O=C(O)c1cc(N(Cc2ccccc2O)Cc2cc(O)ccc2O)ccc1O	19.5%
Nc1nc(Nc2ccccc2F)sc1C(=O)c1ccc(Br)cc1	62.3%
NC(=O)Nc1cc(-c2cccc(F)c2)sc1C(=O)N[C@H]1CCCNC1	27.8%
C=CC(=O)N1CCC[C@@H](n2nc(-c3ccc(Oc4ccccc4)cc3)c3c(N)ncnc32)C1	34.1%
O=C1Cc2c([nH]c3ccc([N+](=O)[O-])cc23)-c2ccccc2N1	11.8%
N#CC(=Cc1cccc(F)c1)c1nc2ccccc2s1	7.9%
CN(C)C[C@@H]1CCn2cc(c3ccccc32)C2=C(C(=O)NC2=O)c2cn(c3ccccc23)CCO1	96.7%
COc1ccc(Nc2ncc(F)c(Nc3ccc(OC)c(Cl)c3)n2)cc1Cl	16.6%
COc1ccc(-c2nsc3c(=O)[nH]cnc23)cc1	9.3%
COc1ccc(-c2csc3nc[nH]c(=O)c23)cc1	4.9%
COc1cc(C=C2SC(=O)NC2=O)c(Br)cc1O	-4.1%
Cc1ccc2c(c1)C(=NNC(=O)c1ccc(Cl)cc1)C(=O)N2	10.7%
COc1ccc(Nc2ncc(F)c(Nc3ccc(OC)cc3)n2)cc1	17.7%
COCCCOc1ccnc(C[S+]([O-])c2nc3ccccc3[nH]2)c1C (stereo not drawn)	27.9%
N#Cc1ccc(C(=O)Nc2cc(N3CCCCC3)ccc2N2CCCCC2)o1	59.3%
CC(C)(C)c1cnc(CSc2cnc(NC(=O)C3CCNCC3)s2)o1	21.3%

Block 2 — cell line: A-375; tested at: 100 µM; time: 36 h
Compound	viability
COc1ccc(Cl)cc1C(=O)NCCc1ccc(S(=O)(=O)NC(=O)NC2CCCCC2)cc1	96.8%
CN(C)CCn1nnnc1SCC1=C(C(=O)O)N2C(=O)[C@@H](NC(=O)Cc3csc(N)n3)[C@H]2SC1	115%
C[C@@H]1[C@H](O)[C@@H](C)/C=C/C=C/C=C/C=C/C=C/C=C/C=C/[C@H](O[C@@H]2O[C@H](C)[C@@H](O)[C@H](N)[C@@H]2O)C[C@@H]2O[C@](O)(C[C@@H](O)C[C@@H](O)[C@H](O)CC[C@@H](O)C[C@@H](O)CC(=O)O[C@H]1C)C[C@H](O)[C@H]2C(=O)O	102%
Cc1ncc([N+](=O)[O-])n1CC(O)CCl (stereo not drawn)	105%
Cc1onc(-c2ccccc2Cl)c1C(=O)N[C@@H]1C(=O)N2[C@@H]1SC(C)(C)[C@@H]2C(=O)O	102%
O=C1c2cccc(O)c2C(=O)c2c(O)cc(CO)cc21	84.2%
NC(=O)NS(=O)(=O)c1ccc(N)cc1	106%
O=C(O)c1cn(-c2ccc(F)cc2)c2cc(N3CCNCC3)c(F)cc2c1=O	103%
CC(=O)O[C@H]1C(=O)[C@@]2(C)[C@H]([C@H](OC(=O)c3ccccc3)[C@]3(O)C[C@H](OC(=O)[C@H](O)[C@@H](NC(=O)c4ccccc4)c4ccccc4)C(C)=C1C3(C)C)[C@]1(OC(C)=O)CO[C@@H]1C[C@@H]2O	32.5%
COc1cnc(NS(=O)(=O)c2ccc(N)cc2)nc1	98.3%
O=C(Nc1ccccc1)OCC(CN1CCCCC1)OC(=O)Nc1ccccc1 (stereo not drawn)	-1.21%
COC(=O)C1=CO[C@@H](O[C@@H]2O[C@H](CO)[C@@H](O)[C@H](O)[C@H]2O)[C@@H]2C(CO)=CC[C@H]12	116%
CC(/C=C1\SC(=S)N(CC(=O)O)C1=O)=C\c1ccccc1	107%
O=C(O)c1cc(O)c2c(c1)[C@H]([C@H]1c3cc(C(=O)O)cc(O)c3C(=O)c3c(O[C@@H]4O[C@H](CO)[C@@H](O)[C@H](O)[C@H]4O)cccc31)c1cccc(O[C@@H]3O[C@H](CO)[C@@H](O)[C@H](O)[C@H]3O)c1C2=O	108%
C[C@]12CCC(=O)C=C1[C@@H]1C[C@@H]1[C@H]1[C@@H]3[C@@H]4C[C@@H]4[C@@]4(CCC(=O)O4)[C@@]3(C)CC[C@@H]12	45.5%
CC(=O)OCC(COC(C)=O)OC(C)=O	122%
CS(=O)(=O)c1ccc(C2=C(c3ccccc3)C(=O)OC2)cc1	114%
CCOc1ccc2nc3cc(N)ccc3c(N)c2c1	0.545%
C[C@@H]1C[C@H]2[C@@H]3CCC4=CC(=O)C=C[C@]4(C)[C@@]3(F)[C@@H](O)C[C@]2(C)[C@@]1(O)C(=O)CO	84.3%
CC(C)(C)CC(C)(C)c1ccc(O)c(Cc2ccc(Cl)cc2Cl)c1	-1.33%
CCN(CC)C(=O)Nc1ccc(OCC(O)CNC(C)(C)C)c(C(C)=O)c1 (stereo not drawn)	114%
CN(c1nccc(=O)[nH]1)C1CCN(c2nc3ccccc3n2Cc2ccc(F)cc2)CC1	22.9%
CCCCC(O)c1ccccc1 (stereo not drawn)	106%

Block 3 — observed: enzyme activity; action: inhibitor; tested at: 0.5 µM; reference: control
Target: Phosphorylase b kinase gamma catalytic chain, liver/testis isoform (PHKG2, Homo sapiens, UniProt P15735)
Construct (P15735 1-406): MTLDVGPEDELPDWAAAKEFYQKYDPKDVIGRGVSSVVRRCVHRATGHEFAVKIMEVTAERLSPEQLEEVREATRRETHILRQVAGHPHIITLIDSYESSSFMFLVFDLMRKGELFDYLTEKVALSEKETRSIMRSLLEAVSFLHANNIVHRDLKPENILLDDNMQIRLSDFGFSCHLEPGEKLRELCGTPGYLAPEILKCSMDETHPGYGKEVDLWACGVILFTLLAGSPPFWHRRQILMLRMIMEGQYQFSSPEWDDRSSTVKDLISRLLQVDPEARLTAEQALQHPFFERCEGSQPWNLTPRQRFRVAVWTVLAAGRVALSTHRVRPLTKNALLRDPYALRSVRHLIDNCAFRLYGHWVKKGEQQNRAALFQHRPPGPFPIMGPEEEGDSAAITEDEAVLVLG
Compound	remaining activity [%]
c1cc(-c2cnn3cc(-c4ccc(OCCN5CCCCC5)cc4)cnc23)ccn1	31.2
CC(C)N(CCC(=O)c1ccc2ccccc2c1)Cc1ccccc1	99.9
COc1cc2c(N3CCN(C(=O)Nc4ccc(OC(C)C)cc4)CC3)ncnc2cc1OCCCN1CCCCC1	98.9
CNc1cc2c(Nc3cccc(Br)c3)ncnc2cn1	113
O=c1c(-c2ccc(F)cc2)c(-c2ccncc2)[nH]n1-c1ccc(Cl)cc1	121
CCN(CC)CCCCN1c2ccccc2Oc2ccc(Cl)cc21	110
O=C1c2ccccc2-c2nc3nnnn3nc21	96.1
CC(C)(C)c1nc2c3cc[nH]c(=O)c3c3cc(F)ccc3c2[nH]1	57.3
NC(=O)c1cccc(-c2cc(Nc3ccc(OC(F)(F)F)cc3)ncn2)c1	103
O=C1NC(=O)/C(=C/c2ccc3c(c2)OC(F)(F)O3)S1	95.2
C[C@@H](N)[C@H]1CC[C@H](C(=O)Nc2ccncc2)CC1	95.7
Nc1nc(Nc2ccc(S(N)(=O)=O)cc2)nn1C(=S)Nc1c(F)cccc1F	95.5
O=Nc1c(-c2c(O)[nH]c3ccccc23)[nH]c2ccccc12	60.7
N#C/C(=C(/N)SC1C=CC=CC1)c1cccc(C(O)c2ccncc2)c1 (stereo not drawn)	101
O=C(O)/C=C/c1cc(Br)c(Br)c(Br)c1Br	98.9
O=C(c1ccccc1)c1ccc(N2CCOCC2)cc1O	101
NC(=O)c1ccc(-c2nc(-c3ccc4c(c3)OCCO4)c(-c3ccccn3)[nH]2)cc1	97.3
CC(C)n1cnc2c(Nc3cccc(Cl)c3)nc(NCCO)nc21	93.2
CCCCc1c(-c2ccc(O)cc2)[nH]c2nccnc12	100
FC(F)(F)c1ccc(/C=C/c2nc(COc3ccc(CCCCn4ccnn4)cc3)co2)cc1	93.5
N#CC(c1ccnc(NCCc2cccnc2)n1)c1nc2ccccc2s1 (stereo not drawn)	99.5

Block 4 — technique: competition with immobilised ligand; tested at: 1 µM
SMILES: Cn1nc(C(F)(F)F)cc1-c1cnc(N2CCc3cc(S(=O)(=O)Nc4c(F)cc(Cl)cc4F)cc(N4CCCC4=O)c32)nc1
target	test	remaining binding [%]
TYRO3 (Homo sapiens, UniProt Q06418)	cell-free assay	100
MAPK3 (Homo sapiens, UniProt P27361)	cell-free assay	100
CSF1R (Homo sapiens, UniProt P07333)	cell-free assay	82
SGK1 (Homo sapiens, UniProt O00141)	cell-free assay	100
TEC (Homo sapiens, UniProt P42680)	binding	79
SRPK3 (Homo sapiens, UniProt Q9UPE1)	cell-free assay	100
RIPK2 (Homo sapiens, UniProt O43353)	cell-free assay	82
BRAF (Homo sapiens, UniProt P15056)	cell-free assay	82
GRK2 (Homo sapiens, UniProt P25098)	cell-free assay	85
PTK2 (Homo sapiens, UniProt Q05397)	cell-free assay	98
EPHB6 (Homo sapiens, UniProt O15197)	cell-free assay	82
CDK4 (Homo sapiens, UniProt P11802)	cell-free assay	68
Tyrosine-protein kinase JAK1, JH2 (JAK1, Homo sapiens, UniProt P23458)	cell-free assay	96
PIP5K1A (Homo sapiens, UniProt Q99755)	cell-free assay	100
PNCK (Homo sapiens, UniProt Q6P2M8)	cell-free assay	80
PRKACA (Homo sapiens, UniProt P17612)	cell-free assay	100
LRRK2 (Homo sapiens, UniProt Q5S007, G2019S)	cell-free assay	93

For quick reference, copied from above (block 4):
target	test	remaining binding [%]
CDK4 (Homo sapiens, UniProt P11802)	cell-free assay	68
PNCK (Homo sapiens, UniProt Q6P2M8)	cell-free assay	80
SGK1 (Homo sapiens, UniProt O00141)	cell-free assay	100
BRAF (Homo sapiens, UniProt P15056)	cell-free assay	82
RIPK2 (Homo sapiens, UniProt O43353)	cell-free assay	82
EPHB6 (Homo sapiens, UniProt O15197)	cell-free assay	82
CSF1R (Homo sapiens, UniProt P07333)	cell-free assay	82
TYRO3 (Homo sapiens, UniProt Q06418)	cell-free assay	100
MAPK3 (Homo sapiens, UniProt P27361)	cell-free assay	100
SRPK3 (Homo sapiens, UniProt Q9UPE1)	cell-free assay	100
PTK2 (Homo sapiens, UniProt Q05397)	cell-free assay	98
TEC (Homo sapiens, UniProt P42680)	binding	79
PRKACA (Homo sapiens, UniProt P17612)	cell-free assay	100
